Experimental data pooled from the literature.
Lines come from different studies, so protocols differ.
RET M918T: Proto-oncogene tyrosine-protein kinase receptor Ret (RET, Homo sapiens, UniProt P07949, M918T)
RET V804M: Proto-oncogene tyrosine-protein kinase receptor Ret (RET, Homo sapiens, UniProt P07949, V804M)
RET: Proto-oncogene tyrosine-protein kinase receptor Ret (RET, Homo sapiens, UniProt P07949)

| Compound | target | observed | method | tested at | relative to | remaining binding [%] |
| --- | --- | --- | --- | --- | --- | --- |
| Nc1ncc2c(n1)-c1c([nH]c3ccc(C4=CCOCC4)cc13)CCC2 | RET M918T | binding | competition with immobilised ligand | 1 µM | – | 100 |
| CNC(=O)C1CCN(c2cc(C)c(F)cc2NC(=O)c2ccc(-c3cc(O)ccc3C)c(C)c2)CC1 | RET V804M | binding | competition with immobilised ligand | 1 µM | – | 98 |
| Cc1cnc2nc1Nc1cccc(c1)COC/C=C/COCc1cc(ccc1OCCN1CCOCC1)N2 | RET M918T | binding | – | 0.1 µM | – | 48 |
| CNC1C[S+]2CC[S+]3CC[S+](C1)[Ru-4]321([N]=C=S)[n]2c3ccc(OC)cc3c3c4c(c5cc(F)c[n+]1c5c32)C(=O)NC4=O (stereo not shown) | RET M918T | – | KinomeScan | 0.1 µM | untreated | 100 |
| CC(C)=CC1OC(C)(C)C2C=C3C(=O)C(Cl)=CC(O)C3C3C(O)C4OC4C(=O)C132 (stereo not shown) | RET | cell-free assay | competition with immobilised ligand | 10 µM | – | 95 |
| C=CC(=O)N1CCc2ccc(-n3c(=O)ccc4cnc5ccc(-c6cnn(C)c6)cc5c43)cc21 | RET V804M | – | KINOMEscan | 1 µM | DMSO control | 100 |
| COc1c(Cl)cccc1Nc1c(-c2ccncc2C#C[C@@]2(C)CCCN2C(=O)/C=C/CN(C)C)[nH]c2c1C(=O)NCC2 | RET | binding | competition with immobilised ligand | 3 µM | – | 100 |
| Cc1ccc(-c2c(/C=C(\C#N)C(=O)NC(C)C)n(CCCO)c3ncnc(N)c23)cc1 | RET V804M | cell-free assay | competition with immobilised ligand | 1 µM | – | 100 |
| CCN1CCN(Cc2ccc(C(=O)Nc3ccc(C)c(NCc4cnc5[nH]ccc5c4OC)c3)cc2C(F)(F)F)CC1 | RET M918T | binding | competition with immobilised ligand | 1 µM | – | 0.2 |
| C=CC(=O)N1CCCC(n2c(=O)c3ncccc3n(Cc3ccc(Oc4ccccc4)cc3)c2=O)C1 (stereo not shown) | RET (Homo sapiens, UniProt P07949, V804L) | cell-free assay | competition with immobilised ligand | 1 µM | – | 96 |
